Results of several laboratories.
Each numbered part is a random draw from the data of one study; scales do not carry over between parts.

Sample 1
Target: Fragile X messenger ribonucleoprotein 1, C-terminal low-complexity region (Fmr1, Mus musculus, UniProt P35922)
Technique: RNA Bind-n-Seq
Form: RNA
Medium: in vitro
Tested at: 200 nM
Setting: whole 134-nt RNA, ends assumed
Together with: 150 mM KCl
Relative to: input library
Reading: higher = stronger binding
All sequences stand within: GGGAGUUCUACAGUCCGACGAUC … UGGAAUUCUCGGGUGUCAAGG
Sequence	log2 enrichment
CCUCAAGUCCUGUGCUACACAUCGUAUGUACCGAAUCGGGUGGGUGGGGUGGGAAAGUAUUAUGUUACGCCGUUCGGAUCUGCACUUCCA	0.616
CCUGUGCUACACAUCGUAUGUACCGAAUCGGGCCCCCCCGGCCCCCCCGGGCCCCCCCGGGAAAGUAUUAUGUUACGCCGUUCGGAUCUG	-0.596
CCUGUGCUACACAUCGUAUGUACCGAAUCGGGUUUUUUUGGGUUUUUUUGGUUUUUUUGGGAAAGUAUUAUGUUACGCCGUUCGGAUCUG	-0.773
CACAGACAACACGCACCCACACAGACACAGAGGGAAGGGGUUGGGAAAAGGACAGGGUGCACAGCAGGGCGGGGUAGGACCCCAGCCCCU	0.591
AGUCCUGUGCUACACAUCGUAUGUACCGAAUCGGGGAAAAGGGGAAAAGGGGAAAAGGAAAGUAUUAUGUUACGCCGUUCGGAUCUGCAC	0.0889
CACAGACAACAAGCACCCACACAGACACAGAGGGAAGGGGUUGGGAUGGGGACAGGGUGCACAGCAGGGCGGGGUAGGACCCCAGCCCCU	1.24
UCAUGUGGAUGAAGCAGAAAAAGAAGCUCAGAAGAAGCCAGCUGAAUCUCAAAAAAUAGAGCGUGAAGAUGCCCUGGCUUUUAAUUCAGC	-0.817
AAGUCCUGUGCUACACAUCGUAUGUACCGAAUCGGGAAAAAAAGGGAGGGAAAGGGAAAGUAUUAUGUUACGCCGUUCGGAUCUGCACUU	0.323
UUGGGCUGCCCAUCACCGUGGCCCAUGUGGAUGGCCAAACCCACAUGUUAUUUGGCUCUGACCGGAUGGAGCUGCUGGCGCACCUGCUGG	-1.53
GUCCUGUGCUACACAUCGUAUGUACCGAAUCGGGCCCCCCGGCCCCCCGGCCCCCCGGGAAAGUAUUAUGUUACGCCGUUCGGAUCUGCA	-0.209
GUCCUGUGCUACACAUCGUAUGUACCGAAUCGGGCCCCGGGGCCCCGGGGCCCCGGGGAAAGUAUUAUGUUACGCCGUUCGGAUCUGCAC	-0.56
AAGUCCUGUGCUACACAUCGUAUGUACCGAAUCGGGGCCCCGGCCCCGGGCCCCGGAAAGUAUUAUGUUACGCCGUUCGGAUCUGCACUU	-0.67
GCAGGAAGUAAAAACAAAUGGAAAUGCUUCGGAUAGUGGCAGGGGUGGGGGUUGCUAAGGAAAGGGUGGGAUGGGAGUGGGUAAAGAAUU	0.133
UGGCCCUGGUGGCAUGCGGGGAGGAAGAGGUGGCCUCAUGGAUCGUGGUGGUCCCGGUGGAAUGUUCAGAGGUGGCCGUGGUGCAGACAG	0.108

Sample 2
Target: RNA binding protein fox-1 homolog 2, RRM domain, GST-SBP tag (RBFOX2, Homo sapiens, UniProt O43251-10, residues 100-194)
Technique: RNA Bind-n-Seq
Form: RNA
Medium: in vitro
Tested at: 365 nM
Setting: natural RNA segment, single round, ends assumed
Relative to: no-protein control
Reading: higher = stronger binding
All sequences stand within: GGGAGUUCUACAGUCCGACGAUC … UGGAAUUCUCGGGUGCCAA
Residues (chain): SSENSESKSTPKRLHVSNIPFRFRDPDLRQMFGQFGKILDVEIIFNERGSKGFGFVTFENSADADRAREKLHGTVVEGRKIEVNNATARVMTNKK
Sequence	RBNS enrichment (R)
CCCUGCUAGUUCCUGUCAAGGCAUGCCCAGGUUCUCCACAGCUUUCCAGUGCAAAAGGCCUAGACACUCCCAGUAGCCCAGCCUCUCUGGUCAUCUCUCCGUUCACACCC	0.978
UUAUCCCAGGCAUUCUUAGAUGGAAAACAAUACUUUUGUUUUUUCUUCUAAAUUGAAGCUUGUUAAAAUAAUCACUGUAGUUAUGUGGUACACUAGUAUUUCUUAAAGCA	0.963
CAGCACCAGGGAAGCUAAGGUGGAAGGUUGUUUGAGUUUGGAACUGGGCUAGAGAGUGAGUUAUUGCUCACUCUGAGUUCUGCGCUACUCUGGGGGACUCUGUUUCAAGG	0.411
GAAAAUGAAACCAUAAACUCUAAGUGGCUCUUAUAGGUGCUGAAGGGCUUAUUCUCAGCUAACCCUGGAAGGCUCUAGGGAGGGAGUCUUUUUCCUGAUCCUUGGUAUGA	0.368
GAGAAAAUUAAUGAAUGAGAUGACUAACGGUAGAAAAGUUAUUGCCUAGGAGUGUGAGACUGAUGUUGCUGGACAGAAAGUGAUCCUUAGCCCAGUGUGUCAGCGUCCAU	3.92
UGGACCAGAAGCCUGGUCUGUGCCUAGGAUGACACUGGCCCCAGAGAUGCUAGAGUCGACUGCACUCUCUCCUUAGCUGCAGACCAUGCACAGUGCCUGGGGCGGAAGGA	2.33
AAGUGCCAUAUUCUGUGAUCACGGAUGUUGGCUCCCCCUCGCCCUAUGCAAGCAAACACACUCUCACCUCCUCUCCCAGCCUCCCGGAGCUCUGAGCACGCCCCACGCAU	1.36
AGUAUUGCAGCCAAAGAAUAUUUAAAUAAACGUCUUUGCUGCGCUUGCAUCCAUGCCCAGCCAAUAUACAACUGUAAAGCAAAUAUAGAAAGUCGGCUGUUGAUACGAUU	0.637
UAAACUCCAAAGAUCUGUUUGUUUUGGCUUUACAAUCUUAGCUAAUUUUUCUGUAUCCUGGAACCAUUACAUGAUCAUGUUGCUUUGAAGAUCUUUUUAUGCCACUGUUU	1.03
AGGAAUUGGGCCACCUGUGGCAUCAAGACUGCAACUUGACAAUCACGGUUUGCUGAUCUCAAACGGGCACUUAAAGCCUGGUAUGGGUGUGUGAUUUAGUGACUGAGCCU	0.661
CUGUGUAGCUGAGCAAGGUCUGCUCUCCAGAGGAACACAUCUGCAUUGAACACAUCUGCAAGUACAAUGUCUUGAUCCAAAACAGCAAAUAGGAAAUCAUGUUCUUCCCA	0.345
UCAGAGUUGAACUACCACUGUGGCUGCUUAUUGCUUCCUCCUAAGUUGCUACUGUUCAUAGAACUGGGACUGGGAAUGUUUUCAGGUUGAUGGACUUUUUCAAGCUCAAA	0.587

Sample 3
Target: Prothrombin, mature alpha-thrombin (F2, Homo sapiens, UniProt P00734)
Technique: aptamer microarray, sandwich
Form: DNA with 2'F-ANA
Medium: in vitro
Tested at: 200 nM
Setting: whole 15-mer aptamer, many near background
Together with: Cy3 exosite-II aptamer, 400 nM
Reading: higher = stronger binding
Sequence: GGTTGGTGTGGTTGG
Modification	mean fluorescence intensity
2'F-ANA at 1 4 6 12 13 14 15	57 a.u.
2'F-ANA at 4 5 6 7 8 9 10 12 15	50.2 a.u.
2'F-ANA at 2 4 5 6 7 9 11 12 15	95.6 a.u.
2'F-ANA at 1 2 3 5 7 8 9 11 14 15	42.4 a.u.
2'F-ANA at 2 5 7 9 10 11 12 13 15	47.6 a.u.
2'F-ANA at 1 3 5 8 9 11 12 15	105 a.u.
2'F-ANA at 1 2 3 5 7 8 9 11 12 13	81.5 a.u.
2'F-ANA at 3 4 9 10	275 a.u.
2'F-ANA at 2 3 7 9 11 12 13	827 a.u.
2'F-ANA at 1 2 4 6 9 12 13 14 15	52.6 a.u.
2'F-ANA at 1 4 6 8 11 12 13 15	163 a.u.
2'F-ANA at 2 3 6 8 11 13 15	569 a.u.
2'F-ANA at 5 7 8 9 11 12 13 14	53.8 a.u.
2'F-ANA at 1 4 6 7 9 10 14	43.9 a.u.
2'F-ANA at 1 2 5 6 7 8 11 12	90.3 a.u.
2'F-ANA at 7 8 9 10 11 13	169 a.u.
2'F-ANA at 2 3 7 8 11 12 13 15	866 a.u.
2'F-ANA at 1 3 4 7 8 9 12	481 a.u.
2'F-ANA at 1 2 4 6 7 8 11	119 a.u.
2'F-ANA at 1 2 4 9 11 13	112 a.u.

Sample 4
Target: Histone acetyltransferase KAT6A, winged helix 2, GST fusion (KAT6A, Homo sapiens, UniProt Q92794, residues 85-181)
Technique: protein binding microarray
Form: double-stranded DNA, one strand shown
Medium: in vitro
Tested at: not given
Setting: 8-mer, flanks averaged, mean of 2 arrays, mostly near background
Relative to: not given
Reading: higher = stronger binding
Target sequence (chain): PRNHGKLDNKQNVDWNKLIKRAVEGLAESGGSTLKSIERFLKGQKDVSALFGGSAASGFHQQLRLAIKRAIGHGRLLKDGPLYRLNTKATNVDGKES
Sequence	E-score
ACTCGAGC	0.00889
AAACGGGC	0.0225
ACCCAACT	-0.0834
CAGGAGAC	0.00434
CGCTGTAG	-0.0994
TCGCGGCA	0.155
AGCCTGAG	0.024
AACCCGCT	-0.0784
AACCAACG	-0.0162
ATGTCTTG	-0.101
TAATAGTA	0.064
GAGTACCA	-0.0608
ATCGTCTA	-0.148
CAGATGTA	-0.184
ACAAGGGT	-0.116
AAATGGCC	-0.0636
AAACAAGA	0.15
AGAGAGAT	0.111
AGAGGACT	-0.201
CACAGTGA	0.0514
CATAATGA	0.0222
CGACCAGC	0.123
GAGTAGAC	0.0112
GTTTGGGA	0.178
CCTGCGCC	0.0872

For quick reference, copied from above (sample 2):
Sequence	RBNS enrichment (R)
CAGCACCAGGGAAGCUAAGGUGGAAGGUUGUUUGAGUUUGGAACUGGGCUAGAGAGUGAGUUAUUGCUCACUCUGAGUUCUGCGCUACUCUGGGGGACUCUGUUUCAAGG	0.411
GAAAAUGAAACCAUAAACUCUAAGUGGCUCUUAUAGGUGCUGAAGGGCUUAUUCUCAGCUAACCCUGGAAGGCUCUAGGGAGGGAGUCUUUUUCCUGAUCCUUGGUAUGA	0.368
GAGAAAAUUAAUGAAUGAGAUGACUAACGGUAGAAAAGUUAUUGCCUAGGAGUGUGAGACUGAUGUUGCUGGACAGAAAGUGAUCCUUAGCCCAGUGUGUCAGCGUCCAU	3.92
UGGACCAGAAGCCUGGUCUGUGCCUAGGAUGACACUGGCCCCAGAGAUGCUAGAGUCGACUGCACUCUCUCCUUAGCUGCAGACCAUGCACAGUGCCUGGGGCGGAAGGA	2.33
AAGUGCCAUAUUCUGUGAUCACGGAUGUUGGCUCCCCCUCGCCCUAUGCAAGCAAACACACUCUCACCUCCUCUCCCAGCCUCCCGGAGCUCUGAGCACGCCCCACGCAU	1.36
AGUAUUGCAGCCAAAGAAUAUUUAAAUAAACGUCUUUGCUGCGCUUGCAUCCAUGCCCAGCCAAUAUACAACUGUAAAGCAAAUAUAGAAAGUCGGCUGUUGAUACGAUU	0.637
UAAACUCCAAAGAUCUGUUUGUUUUGGCUUUACAAUCUUAGCUAAUUUUUCUGUAUCCUGGAACCAUUACAUGAUCAUGUUGCUUUGAAGAUCUUUUUAUGCCACUGUUU	1.03
AGGAAUUGGGCCACCUGUGGCAUCAAGACUGCAACUUGACAAUCACGGUUUGCUGAUCUCAAACGGGCACUUAAAGCCUGGUAUGGGUGUGUGAUUUAGUGACUGAGCCU	0.661
CUGUGUAGCUGAGCAAGGUCUGCUCUCCAGAGGAACACAUCUGCAUUGAACACAUCUGCAAGUACAAUGUCUUGAUCCAAAACAGCAAAUAGGAAAUCAUGUUCUUCCCA	0.345
UCAGAGUUGAACUACCACUGUGGCUGCUUAUUGCUUCCUCCUAAGUUGCUACUGUUCAUAGAACUGGGACUGGGAAUGUUUUCAGGUUGAUGGACUUUUUCAAGCUCAAA	0.587
